Published values from different studies.
Parts stem from different laboratories: compare values within a part only. Substitutions count along the parent as printed.

Sample 1
Target: RNA binding protein fox-1 homolog 2, RRM domain, GST-SBP tag (RBFOX2, Homo sapiens, UniProt O43251-10, residues 100-194)
Method: RNA Bind-n-Seq
Molecule type: RNA
Medium: in vitro
Concentration: 365 nM
Setting: natural RNA segment, single round, ends assumed
Reference: no-protein control
Direction: higher = stronger binding
Constant ends, left off below: GGGAGUUCUACAGUCCGACGAUC … UGGAAUUCUCGGGUGCCAA
Target sequence (chain): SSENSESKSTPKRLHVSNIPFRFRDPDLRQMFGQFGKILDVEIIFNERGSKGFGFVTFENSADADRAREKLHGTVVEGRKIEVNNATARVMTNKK
Strand	RBNS enrichment (R)
GGCCAGUUGGCCUUCUCACUUUGAUAGUUUAACUCAGGUACCCAGUCUUCACUCCAUCCCCAGGUGCUUGUUCACCUCAUUAAUGAGCACCUAGAGCAAGGACCAAAAGA	0.22
GUGUUUGUCACUUGUUGUGUGGUUUUAUGUUUCCCGCUGUGUGAGCAUAAACACUGUGCAGUUUUCCUGCUUGCCAGCCUGUGUGCCAUCUGUUCUCACAGCCUCUGAGA	0.368
UUAGGACUGUUUCUCUCUAAGACACCAUUGUUUUCCCUUAUUUUAAAAGUGAUUUUUUUAAGGACAGAACUUCUUCCAAAAGAGAGGGAUGGCUUUCCCAGAAGACACUC	0.281
AAAGAGAAGCAAUAUUGUGCAACUGGUGCAGUGGUGAGUUAAUCAUAGUGUAUAACCUUGUGUUCAUGAAACAGGUUGUUCAUUGUUCUGCAUCUCUCUUCAUUUAAAAA	0.412
CAGAGCAGACCAGGCUGCCUCAGAGCAUACACCUUAUAAUGCAACCCACUUCAGCUGGCUUUGGGGAAAGGGGCAUCAAAUUCAGCCUGCCCCAAGGUUGUCAGAGUCAA	0.392
GUUUCCAGUGUGACUCGGCAUGUCAUGGCUACCCAACCUUUGCCGCUGCCUGUUCCCACGUGUCACCAGCACGCUGCACUCCAGAUGAAAUCCUCCUAGGACAGGAGUUU	0.585
UGGACAAAGAACUUGUGGUCUUUUAAAACUGGGACUGAUACUUUUUUGAGAGAGUAUCGUGUCGAAAGUGUGAUGUUCUACCACUUUACCAAUAACUAAUUUUAAAUACA	0.62
AUUCACGGUGAGACAUUUUGCCACCUUCUUGUGUAUAUUACUUGGCAUGAGAUGAUAUUGUACUUGUAUAGGAUUCUAGCAAUUCAUAAUAAAUAUGUAAGACUAGGCUU	0.615
GCCUGAAAGGCUCCACAGCAUGGCGUCCGUCUCCCAGGGUUCUGAUCCGUCUCCUCACGGUGCAAUCAGGCAGGACAGGAGGAGGUGCAGGGCUACCACAUUGACCCAGA	0.821
GUUUUAAGGAGAUACAAUUUACCUGCCACAAAAUUUACCCAUUUUAGGUUUAUACUUAGAUGGUUGUUCAGUAAGUUUAUAGAGUUGUGCAACUAUCACAACCAAUGUUA	0.621
UCUCUCAGCCUCACCAGUGACAGAGAACAGCUGUGGUUCUCUGCUGGCCUCAGCUGAUCCAUGCUGUCUGACUCCCGGGGAGAGUUAGGAAGAUGCAAGGACCUCUCCUC	1.03
CUGUGCCAUGGAUUUUGUUUUCCUUGGGGUAUUCUUGAUGUGAAGAUAAUUUGCAUACUCUAUUGUAUUAUUUGGAGUUAAAUCCUCACUUUGGGGGAGGGGGGAGCAAA	1.01

Sample 2
Target: Interferon regulatory factor 3, full length, phosphomimetic (IRF3, Homo sapiens, UniProt Q14653, residues 1-427, S386D/S396D/S398D/S402D/T404D/S405D)
Method: protein-binding microarray
Molecule type: double-stranded DNA, one strand shown
Medium: in vitro
Concentration: 2540 nM top
Setting: 60-bp whole probe
Together with: salmon DNA 0.4 mg/ml
Reference: random background probes
Direction: higher = stronger binding
Constant ends, left off below: GCCTAGCAC … GTCTTGATTCGCTTGACGCTGCTG
Target sequence (chain): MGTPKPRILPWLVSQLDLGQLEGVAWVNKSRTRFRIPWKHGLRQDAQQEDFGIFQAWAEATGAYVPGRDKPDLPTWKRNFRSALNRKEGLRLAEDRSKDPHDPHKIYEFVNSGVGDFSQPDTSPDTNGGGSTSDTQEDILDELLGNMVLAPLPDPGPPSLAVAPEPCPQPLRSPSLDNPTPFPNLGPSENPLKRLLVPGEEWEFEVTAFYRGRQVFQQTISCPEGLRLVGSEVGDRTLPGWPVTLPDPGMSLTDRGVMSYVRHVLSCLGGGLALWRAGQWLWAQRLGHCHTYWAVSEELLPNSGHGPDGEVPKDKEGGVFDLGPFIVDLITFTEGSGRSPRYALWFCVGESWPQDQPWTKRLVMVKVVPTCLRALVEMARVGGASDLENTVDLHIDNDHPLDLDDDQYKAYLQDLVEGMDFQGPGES
Strand	fitted relative affinity [z-score]
GAAGCTTCCTCTCTGCCACTGTGCTAG	-0.0375
GACGGTAACGGACTGGGGACGTGCTAG	-0.523
TTAGAACTGAGACTGGAATAGTGCTAG	-0.265
TTAGGTCTCGGTATCGGGTAGTGCTAG	1.39
TTTTGCTTTCTTTTATGCTCGTGCTAG	4.23
TTCGGACTGCTTCTCCTTTAGTGCTAG	0.177
TTAGGACTGCTACTGATTTAGTGCTAG	-0.518
TTAGATCTCAGACTTGATTAGTGCTAG	0.0844
TTACATATCAGACTGGATTAGTGCTAG	0.798
TTAGCTATCCTTCTCCTTTAGTGCTAG	4.25
GACGAACTAAGTTTCGAGACGTGCTAG	2
GACCGTTTCGACACTGGGGACGTGCTA	3.3
GACTGACTGGACTTTCGGGACGTGCTA	-0.0185
GAGGGACTGCTACTGCTGACGTGCTAG	-0.98
GACGGTTTCCTACAGCTGACGTGCTAG	3.19
GTCGATTTCAGTATCGAGACGTGCTAG	3.38

Sample 3
Target: CCNE2, cyclin fold, Cln2 fusion (human)
Method: yeast growth competition, sequencing
Medium: yeast
Setting: strong parent motif
Reference: not given
Direction: higher = stronger binding
Starting sequence: E2F1 docking peptide (human); PPVKRRLDLETDH
Substitution	normalised enrichment score
P1I	1.24
D8L	2.65
H13P	1.64
L7D	0.645
E10K	0.501
K4L	0.263
V3D	-0.362
K4S	0.412
D12T	0.993
D12L	1.99
D12E	1.24
D12Y	3.14
D8T	1.78
R5T	0.048
K4I	0.343
L7E	-0.37
D8S	1.47
K4G	-0.0652
P2V	0.256
R5H	-0.0795
R6G	0.185
H13E	0.284
R6N	0.677
D12M	2.08
R5P	-0.721

Sample 4
Target: Ras GTPase-activating protein-binding protein 1, RRM domain (G3BP1, Homo sapiens, UniProt Q13283)
UniProt Q13283, sequence (whole entry, looked up): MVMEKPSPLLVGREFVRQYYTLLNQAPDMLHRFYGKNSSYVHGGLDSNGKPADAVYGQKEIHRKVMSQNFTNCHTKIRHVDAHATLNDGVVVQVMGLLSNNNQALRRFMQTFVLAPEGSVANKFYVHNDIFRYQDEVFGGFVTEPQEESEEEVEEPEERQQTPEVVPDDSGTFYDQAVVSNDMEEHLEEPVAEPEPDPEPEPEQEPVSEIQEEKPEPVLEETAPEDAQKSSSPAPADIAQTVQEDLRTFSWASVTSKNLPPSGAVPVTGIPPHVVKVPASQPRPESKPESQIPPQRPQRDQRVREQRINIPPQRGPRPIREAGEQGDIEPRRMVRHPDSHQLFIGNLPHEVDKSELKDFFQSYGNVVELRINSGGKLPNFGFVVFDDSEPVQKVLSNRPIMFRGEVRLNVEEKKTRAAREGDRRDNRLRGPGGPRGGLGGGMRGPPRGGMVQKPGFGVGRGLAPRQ
Method: RNA Bind-n-Seq
Molecule type: RNA
Medium: in vitro
Concentration: 1 µM
Setting: whole 134-nt RNA, ends assumed
Together with: 150 mM KCl
Reference: input library
Direction: higher = stronger binding
Constant ends, left off below: GGGAGUUCUACAGUCCGACGAUC … UGGAAUUCUCGGGUGUCAAGG
Strand	log2 enrichment
GCCGGAAGUAAAAACAAAUGGAAAUGCUUCGGAUAGUGGCAGGGGUGGGGGUUGCUAAGGAAAGGGUGGGAUGGGAGUGGGUAAAGAGUU	1.01
UCAAGUCCUGUGCUACACAUCGUAUGUACCGAAUCGGGCCCGGGCCCGGGCCCGGAAAGUAUUAUGUUACGCCGUUCGGAUCUGCACUUC	-0.984
CUCAAGUCCUGUGCUACACAUCGUAUGUACCGAAUCGGGCCGGGCCGGGGCCGGAAAGUAUUAUGUUACGCCGUUCGGAUCUGCACUUCC	-0.921
UCAAGUCCUGUGCUACACAUCGUAUGUACCGAAUCGGGCCGGGCCGGGGCCGGGGAAAGUAUUAUGUUACGCCGUUCGGAUCUGCACUUC	-0.764
AGUCCUGUGCUACACAUCGUAUGUACCGAAUCGGUUUUUGGUUUUUUUGGAAAAAGGAAAGUAUUAUGUUACGCCGUUCGGAUCUGCACU	-0.139
CAAGUCCUGUGCUACACAUCGUAUGUACCGAAUCGGAAAAAGGUUUUUUUGGAGGAAAGUAUUAUGUUACGCCGUUCGGAUCUGCACUUC	-0.379
AAGUCCUGUGCUACACAUCGUAUGUACCGAAUCGGGUUUUUUUGGGUGGGUUUGGGAAAGUAUUAUGUUACGCCGUUCGGAUCUGCACUU	0.366
CCUGUGCUACACAUCGUAUGUACCGAAUCGGCCCCCCCGGCCCCCCCGGCCCCCCCGGGGAAAGUAUUAUGUUACGCCGUUCGGAUCUGC	-0.816
ACCAUGCAGGUGGGCAUCUUUGGGAAGUGGGGCAAGGGGGGGAUAGUGAGGGGGGUAACACUUUGGGAACAGGUGGUCCCAGGUCGUUUC	0.993
UCCUGUGCUACACAUCGUAUGUACCGAAUCGGGGUUUUUUGGGGUUUUUUGGUUUUUUGGAAAGUAUUAUGUUACGCCGUUCGGAUCUGC	-0.124
CCUCAAGUCCUGUGCUACACAUCGUAUGUACCGAAUCGGGAGGGAGGGAGGGGAAAGUAUUAUGUUACGCCGUUCGGAUCUGCACUUCCA	1.26
UCCUGUGCUACACAUCGUAUGUACCGAAUCGGGGCCCCCCGGGCCCCCCGGCCCCCCGGAAAGUAUUAUGUUACGCCGUUCGGAUCUGCA	-0.308
UCAAGUCCUGUGCUACACAUCGUAUGUACCGAAUCGGAAAGGAAAGGAAAGGGGAAAGUAUUAUGUUACGCCGUUCGGAUCUGCACUUCC	-0.202
ACCAUGCAGGUGGGCAUCUUUGGGAAGUGGGGCAAGGGGCGGAUAGGGAGGGGGGUAACACUUUGGGAACAGGUGGUCCCAGGUCGUUUC	0.95

Sample 5
Target: Histone acetyltransferase KAT6A, both winged helices, GST fusion (KAT6A, Homo sapiens, UniProt Q92794, residues 1-181)
Method: protein binding microarray
Molecule type: double-stranded DNA, one strand shown
Medium: in vitro
Concentration: not given
Setting: 8-mer, flanks averaged, mean of 2 arrays, mostly near background
Reference: not given
Direction: higher = stronger binding
Residues (chain): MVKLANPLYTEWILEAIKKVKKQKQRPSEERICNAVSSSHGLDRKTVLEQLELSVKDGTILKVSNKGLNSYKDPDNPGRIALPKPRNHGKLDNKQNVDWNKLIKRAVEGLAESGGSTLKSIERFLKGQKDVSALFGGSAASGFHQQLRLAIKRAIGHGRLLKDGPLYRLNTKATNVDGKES
Strand	E-score
GGACATAA	-0.0178
CCATCGTA	-0.00173
GATGAACA	-0.00928
CGTGGGAG	0.00771
CCGCTTCG	0.262
TCGAAAAA	0.0737
CTTCCAAG	-0.182
ATGGCGAC	-0.0193
CGTCGCGC	0.336
CTACGGAA	0.207
AGCATTTA	-0.108
ATAGATTG	-0.124
ATGGACGC	0.158
CGGTGTAA	0.122
TGTGAAAA	-0.0496
GGAGTGGA	-0.112
AGGGGTCA	-0.291
GCCAGAAC	-0.098
ACGGTAAT	0.185
CGAGAACG	0.169
GACGAATA	-0.0101
ATCAGTAG	-0.136
CCTCAGTA	-0.134

A few entries again (sample 3):
Substitution	normalised enrichment score
D8L	2.65
H13P	1.64
L7D	0.645
E10K	0.501
K4L	0.263
V3D	-0.362
K4S	0.412
D12T	0.993
D12L	1.99
